# Results from different studies.
# Protocols differ between the studies behind these lines. “And” joins repeats or separate records; there may be more than shown. Numbers after ± are the reported error.
# CYP2C8: Cytochrome P450 2C8 (CYP2C8, Homo sapiens, UniProt P10632)
# Chain of UniProt P08183 (whole entry, looked up): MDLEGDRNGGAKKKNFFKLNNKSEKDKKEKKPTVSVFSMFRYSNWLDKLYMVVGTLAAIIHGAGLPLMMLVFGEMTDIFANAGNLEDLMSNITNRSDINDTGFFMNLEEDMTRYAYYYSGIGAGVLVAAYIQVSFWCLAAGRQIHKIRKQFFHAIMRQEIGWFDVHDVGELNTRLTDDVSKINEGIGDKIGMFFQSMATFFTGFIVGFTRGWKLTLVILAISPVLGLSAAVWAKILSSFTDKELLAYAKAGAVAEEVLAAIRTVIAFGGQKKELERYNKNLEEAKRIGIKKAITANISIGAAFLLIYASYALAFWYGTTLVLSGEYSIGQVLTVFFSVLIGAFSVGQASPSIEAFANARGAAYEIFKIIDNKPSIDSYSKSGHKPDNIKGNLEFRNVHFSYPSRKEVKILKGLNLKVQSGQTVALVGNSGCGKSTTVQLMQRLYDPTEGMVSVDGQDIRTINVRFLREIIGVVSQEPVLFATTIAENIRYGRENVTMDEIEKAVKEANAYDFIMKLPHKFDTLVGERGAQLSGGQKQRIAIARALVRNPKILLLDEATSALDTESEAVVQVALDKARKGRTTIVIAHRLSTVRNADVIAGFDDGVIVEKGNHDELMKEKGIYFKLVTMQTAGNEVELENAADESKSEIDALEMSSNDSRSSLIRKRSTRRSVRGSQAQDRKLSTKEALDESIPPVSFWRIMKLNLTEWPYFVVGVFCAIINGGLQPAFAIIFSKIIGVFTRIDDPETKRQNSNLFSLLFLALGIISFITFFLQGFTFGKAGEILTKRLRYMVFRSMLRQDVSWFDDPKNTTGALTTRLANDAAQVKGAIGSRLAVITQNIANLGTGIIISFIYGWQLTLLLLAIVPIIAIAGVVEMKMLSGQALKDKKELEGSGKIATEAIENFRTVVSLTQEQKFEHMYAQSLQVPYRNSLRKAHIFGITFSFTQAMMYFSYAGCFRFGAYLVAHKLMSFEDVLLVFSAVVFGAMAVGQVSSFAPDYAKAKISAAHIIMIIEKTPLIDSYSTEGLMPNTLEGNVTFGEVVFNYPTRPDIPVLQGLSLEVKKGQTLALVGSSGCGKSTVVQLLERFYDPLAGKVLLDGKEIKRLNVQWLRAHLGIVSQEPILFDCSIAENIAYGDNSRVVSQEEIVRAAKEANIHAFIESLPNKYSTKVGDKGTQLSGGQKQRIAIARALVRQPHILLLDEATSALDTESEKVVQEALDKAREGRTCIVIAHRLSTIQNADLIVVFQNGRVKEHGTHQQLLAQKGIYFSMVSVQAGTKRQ
# Chain of UniProt P33261 (whole entry, looked up): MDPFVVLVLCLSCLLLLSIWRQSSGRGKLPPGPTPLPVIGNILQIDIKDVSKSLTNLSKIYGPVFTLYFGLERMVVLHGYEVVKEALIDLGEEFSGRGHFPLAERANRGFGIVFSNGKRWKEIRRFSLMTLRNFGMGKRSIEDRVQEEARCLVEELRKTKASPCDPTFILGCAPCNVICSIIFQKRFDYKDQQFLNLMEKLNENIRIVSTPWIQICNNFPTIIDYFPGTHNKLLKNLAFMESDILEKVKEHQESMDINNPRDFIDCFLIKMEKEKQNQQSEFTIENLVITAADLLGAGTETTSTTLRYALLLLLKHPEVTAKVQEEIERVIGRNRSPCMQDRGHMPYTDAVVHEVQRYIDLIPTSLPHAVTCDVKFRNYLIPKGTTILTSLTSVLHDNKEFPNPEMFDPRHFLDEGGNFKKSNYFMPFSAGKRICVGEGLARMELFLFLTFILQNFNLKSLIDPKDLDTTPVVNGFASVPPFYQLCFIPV
Structure (SMILES),target or system,assay,system,conditions,scale,endpoint,result
CNC(=O)CC1CN(C(=O)c2ccc(C(F)(F)F)cn2)CCN1C(=O)c1cccnn1 (stereo not shown),Huh-7-ACE2,CellTiter-Glo,,"3.125 µM, 48 h, unit not given",relative to: DMSO,viability,0.957 and 0.99 and 1.01
C[C@@H](c1ccc2nccn2c1)n1nnc2nc(O)c(-c3cnn(C)c3)nc21,"Cytochrome P450 2C19 (CYP2C19, Homo sapiens, UniProt P33261)","enzyme activity, inhibitor","human, liver microsomes",,,IC50,> 50 µM
CNC(=O)C[C@H](Cc1ccncc1)NC(=O)[C@@H](Cc1cccc(Br)c1)NC(=O)[C@@H](N)Cc1cccc(F)c1,Huh-7-ACE2,CellTiter-Glo,,"3.125 µM, 48 h, unit not given",relative to: DMSO,viability,1.05 and 0.981 and 0.952
COc1ccc(-n2cc(C(=O)N3C[C@]4(OC(=O)c5ccccc5NC(C)=O)CC[C@H](OC)[C@@]56[C@@H]4C[C@@H]([C@@H]35)[C@@]3(O)C[C@H](OC)[C@H]4C[C@@H]6[C@]3(O)[C@H]4OC)nn2)cc1,,,"Sprague-Dawley rat, plasma","intravenous, 2 mg/kg, 0.5 h",,plasma concentration,36.3 ng/mL
CSCC[C@H](NC(=O)CNC(=O)[C@H](CCCCN)NC(=O)[C@H](CC(C)C)NC(=O)[C@@H]1CCCN1C(=O)[C@H](CO)NC(=O)[C@H](Cc1c[nH]cn1)NC(=O)[C@H](Cc1c[nH]c2ccccc12)NC(=O)[C@H](CCCNC(=N)N)NC(=O)[C@H](CC(C)C)NC(=O)[C@H](CCCNC(=N)N)NC(=O)[C@H](Cc1c[nH]c2ccccc12)NC(=O)[C@H](CS)NC(=O)CCCCCNC(=O)CN1CCN(CC(=O)O)CCN(CC(=O)O)CCN(CC(=O)O)CC1)C(=O)O [copper-64 labelled],,,"C57BL/6J mice, B16-F10 tumour, blood","intravenous, 1.85 MBq, 18 h",,tissue uptake,0.86 %ID/g
CC(=O)NCCCC[C@@H]1NC(=O)[C@H](Cc2c[nH]c3c(C)cccc23)NC(=O)[C@H]([C@@H](C)O)NC(=O)[C@H](CC(N)=O)NC(=O)[C@@H](NC(C)=O)C(C)(C)SSC(C)(C)[C@@H](C(=O)N[C@@H](Cc2ccc(OCCN)cc2)C(=O)N[C@@H](Cc2ccc3ccccc3c2)C(=O)NC2(C(=O)N[C@@H](CCC(=O)O)C(=O)N[C@@H](CC(N)=O)C(=O)N[C@@H](Cc3cccnc3)C(=O)N(C)CC(N)=O)CCOCC2)NC1=O,"ATP-dependent translocase ABCB1 (ABCB1, Homo sapiens, UniProt P08183)","transport, inhibitor",LLC-PK1 expressing MDR1,"100 µM, 90 min, added: [3H]digoxin",,efflux ratio,14.6
Cc1cc(-c2ccc3ccccc3c2)nnc1NCCN1CCN(C)CC1,CYP2C8,substrate,recombinant enzyme,"100 nM, 0.5 h",,remaining compound,93%
CCN(CC)CCOc1ccc(-c2nnn(Cc3ccc(OC)cc3)c2N)cc1,CYP2C8,CYP phenotyping,,concentration not given,,inhibition,86.3%
Cc1nc2cccc(OCC(C)(C)C(=O)NC(C)C)c2c(N)c1C(=O)[O-].[Na+],Escherichia coli,Ames plate incorporation,WP2 uvrA,"0.80 mg/plate, added: with rat liver S9",,revertant colonies,39 ± 8 colonies/plate
CNC(=O)C[C@H](Cc1ccc(F)cc1)NC(=O)[C@@H](Cc1ccc(Cl)cc1Cl)NC(=O)[C@H](N)Cc1ccccc1[N+](=O)[O-],Huh-7-ACE2,CellTiter-Glo,,"0.195 µM, 48 h, unit not given",relative to: DMSO,viability,1.15 and 0.963 and 1.05
C[C@]12CC[C@H]3[C@@H](CCC4=CC(=O)CC[C@@]43C)[C@@H]1CC[C@@H]2O,,,human liver microsomes,1 nM,,intrinsic clearance,71.6 µL/min/mg
CC[C@H](C)[C@H](NC(=O)[C@H](CCCCN)NC(=O)[C@H](CCCCN)NC(=O)[C@H](Cc1ccccc1)NC(=O)[C@H](Cc1ccccc1)NC(=O)[C@H](CCCCN)NC(=O)[C@H](CCCCN)NC(=O)[C@H](Cc1ccccc1)NC(=O)[C@H](CCCNC(=N)N)NC(=O)[C@@H](N)CCCCN)C(=O)N[C@@H](CCCCN)C(=O)N[C@@H](CCCCN)C(=O)N[C@@H](CO)C(=O)N[C@H](C(=O)N[C@@H](CCCCN)C(=O)N[C@@H](CCCCN)C(=O)N[C@@H](CCCNC(=N)N)C(=O)N[C@H](C(=O)N[C@@H](CCCCN)C(=O)N[C@@H](CCCCN)C(=O)N[C@@H](CC(C)C)C(=O)N[C@@H](Cc1ccccc1)C(=O)N[C@@H](CCCCN)C(=O)N[C@@H](CCCCN)C(=O)N1CCC[C@H]1C(=O)N[C@@H](CCCNC(=N)N)C(=O)N[C@H](C(=O)N[C@H](C(=O)N1CCC[C@H]1C(=O)N[C@H](C(=O)N[C@@H](CO)C(=O)N[C@H](C(=O)N1CCC[C@H]1C(=O)N[C@@H](Cc1ccccc1)C(=O)O)[C@@H](C)CC)[C@@H](C)CC)[C@@H](C)CC)C(C)C)C(C)C)C(C)C,Escherichia coli,MIC after serum incubation,E24,"0.5 h, 37 °C, added: 25% mouse serum",,MIC,8 µg/mL
CN(C)c1ccc(-c2nc3ccccc3n2CCCOc2ccccc2)cc1,Huh-7,"cell growth or viability, ATP luminescence",,72 h,,IC50,> 10 µM
COc1cc2c(cc1NC(=O)c1cncn1C)C[C@H]1[C@H]3CCCC[C@@]23CCN1C,,,"C57BL/6 mouse, plasma","oral, 50 µg/g, 300 min",,plasma concentration,1720 ng/mL
N=C(N)NCCC[C@H](NC(=O)[C@H](CCCNC(=N)N)NC(=O)[C@H](CCCNC(=N)N)NC(=O)[C@H](CCC(N)=O)NC(=O)[C@H](CCCNC(=N)N)NC(=O)[C@H](CCCNC(=N)N)NC(=O)[C@H](CCCCN)NC(=O)[C@H](CCCCN)NC(=O)[C@H](CCCNC(=N)N)NC(=O)CNC(=O)[C@H](Cc1ccc(O)cc1)NC(=O)[C@H](Cc1ccccc1)NC(=O)[C@H](Cc1ccccc1)NC(=O)[C@H](Cc1ccccc1)NC(=O)Cc1ccc2ccccc2c1)C(=O)O,RAW264.7,flow cytometry,,"FITC-labelled compound, added: amiloride 3 mM, 1 h pretreatment",relative to: control,cellular internalization,decreased
NC[C@]1(CC(=O)O)CC[C@@H]([18F])CC1,,"PET, arterial plasma","rhesus monkey, plasma parent","intravenous, baseline",,fast-phase half-life,4.54 min
CCOc1ccc(CN2CC[C@H]2C(=O)NC)cc1-c1cccc(C(=O)NC[C@@H]2COC(C)(C)O2)c1,Huh-7-ACE2,CellTiter-Glo,,"12.5 µM, 48 h, unit not given",relative to: DMSO,viability,0.833 and 0.869 and 0.798
C[C@@H](c1ccc2nccn2c1)n1nnc2ncc(-c3cn[nH]c3)nc21,human CYP3A4/5,time-dependent inhibitor,human liver microsomes,10 µM,,inhibition,< 20%
CNC(=O)C[C@H](Cc1ccncc1)NC(=O)[C@@H](Cc1cccc(Br)c1)NC(=O)[C@@H](N)Cc1ccsc1,Huh-7-ACE2,CellTiter-Glo,,"0.0244 µM, 48 h, unit not given",relative to: DMSO,viability,1.07 and 1.01 and 0.997
O=C1NC2(CC2)COc2ncc(F)cc2[C@H]2COCCN2c2ccn3ncc1c3n2,,,"Sprague-Dawley rat, female, adrenals","oral, 5 mg/kg/day, 4 weeks dosing, end of recovery",,organ-to-body weight ratio,0.027 ± 0.006%
Cc1ccc(NS(=O)(=O)c2c(C(=O)N3CCCCCC3)c(C)n(C)c2C)c(Cl)c1,human cells,,,"11.11 µM, 60 h",,viability,97.9%
CNC(=O)C[C@H](Cc1ccc(F)cc1)NC(=O)[C@@H](Cc1ccc(Cl)cc1Cl)NC(=O)[C@H](N)Cc1ccccc1C#N,Huh-7-ACE2,CellTiter-Glo,,"0.00305 µM, 48 h, unit not given",relative to: DMSO,viability,1.03 and 0.985 and 1.02

# Excerpt of the above:
Structure (SMILES),target or system,assay,system,conditions,scale,endpoint,result
C[C@@H](c1ccc2nccn2c1)n1nnc2ncc(-c3cn[nH]c3)nc21,human CYP3A4/5,time-dependent inhibitor,human liver microsomes,10 µM,,inhibition,< 20%
CSCC[C@H](NC(=O)CNC(=O)[C@H](CCCCN)NC(=O)[C@H](CC(C)C)NC(=O)[C@@H]1CCCN1C(=O)[C@H](CO)NC(=O)[C@H](Cc1c[nH]cn1)NC(=O)[C@H](Cc1c[nH]c2ccccc12)NC(=O)[C@H](CCCNC(=N)N)NC(=O)[C@H](CC(C)C)NC(=O)[C@H](CCCNC(=N)N)NC(=O)[C@H](Cc1c[nH]c2ccccc12)NC(=O)[C@H](CS)NC(=O)CCCCCNC(=O)CN1CCN(CC(=O)O)CCN(CC(=O)O)CCN(CC(=O)O)CC1)C(=O)O [copper-64 labelled],,,"C57BL/6J mice, B16-F10 tumour, blood","intravenous, 1.85 MBq, 18 h",,tissue uptake,0.86 %ID/g
N=C(N)NCCC[C@H](NC(=O)[C@H](CCCNC(=N)N)NC(=O)[C@H](CCCNC(=N)N)NC(=O)[C@H](CCC(N)=O)NC(=O)[C@H](CCCNC(=N)N)NC(=O)[C@H](CCCNC(=N)N)NC(=O)[C@H](CCCCN)NC(=O)[C@H](CCCCN)NC(=O)[C@H](CCCNC(=N)N)NC(=O)CNC(=O)[C@H](Cc1ccc(O)cc1)NC(=O)[C@H](Cc1ccccc1)NC(=O)[C@H](Cc1ccccc1)NC(=O)[C@H](Cc1ccccc1)NC(=O)Cc1ccc2ccccc2c1)C(=O)O,RAW264.7,flow cytometry,,"FITC-labelled compound, added: amiloride 3 mM, 1 h pretreatment",relative to: control,cellular internalization,decreased
